Measured values pooled from the literature.
Lines come from different studies, so protocols differ. Numbers after ± are the reported error.

Compound	cell line	test	system	setting	IC50
C=CC(=O)N1CCCC(n2c(=O)c3ncccc3n(Cc3ccc(Oc4ccccc4)cc3)c2=O)C1 (stereo not shown)	Toledo	cell growth or viability, MTT		72 h	0.6 µM
COc1ccc(CN2C3(NC(c4ccc(OC)cc4)C24C(=O)Nc2ccccc24)C(=O)Nc2ccccc23)cc1 (stereo not shown)	B16	cell growth or viability, MTT		48 h	53.9 µM
CNS(=O)(=O)Nc1nccc(Cc2c(C)c3ccc(Oc4ncccc4F)cc3oc2=O)c1F	RT-4	cell viability		7 days	0.37 µM
COc1ccccc1/C=C1\C(=O)N(C)c2ccc(N(C)c3nc(C)nc4ccccc34)cc21	B16	cell growth or viability, MTT			1.4 µM
Cc1ccccc1Nc1c(-c2ccco2)nc2c(C(F)F)cccn12	UMRC2				6.8 µM
Cc1nc(Nc2ccc3c(c2)/C(=C/c2cn(C)c4ccccc24)C(=O)N3C)c2ccccc2n1	BEAS-2B	cell growth or viability, MTT			4.78 µM
C=CC(=O)N1C[C@H](C)N(c2nc(OC[C@@]34CCCN3C[C@H](F)C4)nc3c(F)c(-c4ccc(F)c5sc(N)c(C#N)c45)c(C(F)(F)F)cc23)C[C@H]1C	Ba/F3 expressing KRAS G12C/R68S	cell viability, CellTiter-Glo		3 days	0.0056 µM
Cc1nc(Nc2ccc3c(c2)/C(=C/c2c[nH]c4ccccc24)C(=O)N3)c2ccccc2n1	B16	cell growth or viability, MTT			0.79 µM
C=CC(=O)N1CC2C(=O)N(CCN(C)C)c3c(c4cc(Cl)c(-c5c(O)cccc5F)nc4n(-c4c(C)ccnc4C(C)C)c3=O)N2CC1C (stereo not shown)	NCI-H2030	cell growth or viability			3.11 µM
O=C1/C(=N\c2ccc(Cl)cc2Br)c2ccccc2N1Cc1cccc(Cl)c1 (mixture of isomers)	B16	cell growth or viability, MTT		48 h	2.07 µM
CC(=O)[O][Pd][c]1ccccc1-n1nc(C)cc1C.CC(=O)[O][Pd][c]1ccccc1-n1nc(C)cc1C	BEAS-2B	cell growth or viability, MTT		24 h	13.2 µM
CSCC[C@H](NC(=O)[C@@H](CO)NC(C)=O)C(=O)N[C@@H](CCCNC(=N)N)C(=O)N[C@@H](Cc1c[nH]c2ccccc12)C(=O)N[C@@H](CO)C(=O)N[C@@H](CCCNC(=N)N)C(=O)N[C@@H](CCCCN)C(=O)N[C@@H](CCSC)C(=O)N1CCC[C@H]1C(=O)N[C@@H](CS)C(=O)N[C@H](C(=O)N[C@@H](CO)C(=O)O)C(C)C	SUP-T1	Erk phosphorylation, inhibitor, phospho flow cytometry		with: CXCL12 100 ng/mL	> 100 µM
O=C1CCC(N2C(=O)c3ccc(N4CCC(C(=O)N5CCC(CCN6CCC(CNC(=O)c7cccc(-c8noc(C(F)(F)F)n8)c7)(c7nc(-c8ccccc8)cs7)CC6)CC5)CC4)cc3C2=O)C(=O)N1 (stereo not shown)	SU-DHL-4	cell growth or viability, CCK-8		7 days	0.65 µM
COc1ccc(OC)c2c1CN(c1cn[nH]c(=O)c1Cl)CC2O (stereo not shown)	CHO	cytotoxicity, MTT			> 50 µM
CCOC(=O)c1cc(C)[nH]n1	BEAS-2B	cell growth or viability, MTT		24 h	155 µM
NC(=O)c1ccc(-c2ccccc2Cl)c2c3c([nH]c12)CCC(N)C3 (stereo not shown)	MX1	cell growth or viability		96 h	0.0182 µM
O=C1/C(=N\c2ccc(Cl)cc2Br)c2ccccc2N1C(=O)c1ccccc1Br	B16	cell growth or viability, MTT		48 h	26 µM

Compound	cell line	test	system	setting	IC50
CCOc1cncc(-c2ccc(NC(=O)C3(c4ccnc(NS(=O)(=O)C5CC5)n4)CCOCC3)nc2)n1	renal cancer	cell viability, CellTiter-Glo	DMSO 0.1%	72 h, line code 1220	0.089 µM
O=C(CCc1ccccc1)N1C(=O)C2(NC(c3ccc(F)cc3)C3(C(=O)Nc4ccccc43)N2Cc2ccc(F)cc2)c2ccccc21 (stereo not shown)	B16	cell growth or viability, MTT		48 h	27.9 µM
CCCON(Cc1ccc(C(=O)NO)cc1)C(=O)Nc1cc(C)cc(C)c1	HAL-01 B-ALL	cell viability, CellTiter-Glo		72 h	2.52 ± 0.122 µM
CC(=O)[O][Pt]([NH2])([NH2])([Cl])([Cl])[O]C(=O)CCCc1ccccc1	PSN1	cell growth or viability, MTT		72 h	1.58 µM
Cc1cnc(Nc2ccc3c(c2)CCN(C(=O)/C=C/C(=O)c2ccc(Cl)cc2)C3)nc1-c1cnn(C(C)C)c1	MDA-MB-157	cell growth or viability, MTT		48 h	0.62 µM
COc1cc(C(=O)N/N=C/c2cccc3ccccc23)cc(OC)c1OC	697	cell viability, MTT		48 h	0.0625 µM
CC(C)C(=O)Cc1c(OCC(O)C(C)(C)O)ccc2ccc(=O)oc12 (stereo not shown)	COLO 320 multidrug-resistant	cytotoxicity, MTT		24 h, 10% fetal bovine serum	> 100 µM
O=C1Nc2ccccc2C12NC(c1ccc(Cl)c(Cl)c1)C1(C(=O)Nc3ccccc31)N2Cc1ccc(Cl)c(Cl)c1 (stereo not shown)	B16	cell growth or viability, MTT		48 h	28.9 µM
CC(C)c1ccc(N(C)c2ccc3c(c2)OCC[C@H]3CNc2cnccc2C(=O)O)cc1	COR-L279	cell growth or viability, ATP luminescence		7 days	0.00434 µM
CCn1nc(Cl)c2c1-c1cnc(N)c(c1)O[C@H](C)c1cc(F)ccc1-c1nn(C)cc1C2	Ba/F3 CD74-ROS1 G2032R	cell viability			0.0011 µM
Cn1ncc(-c2ccc3c(=O)[nH]nc(CN)c3c2)c1-c1c(F)c(Cl)cc(OC2CC2)c1C#N	SF763	cell viability, CellTiter-Glo		120 h	1.3 µM
O=CCNCCOn1c(=O)n(OCCNCCO)c(=O)n(OCCNCCOn2c(=O)n(OCCNCCO)c(=O)n(OCCNCCO)c2=O)c1=O	A549	cell growth or viability, MTT		24 h	10.5 µg/mL
CN1CCC(N[C@H]2CCc3[nH]c4c(C(N)=O)ccc(-c5ccccc5Cl)c4c3C2)CC1	A549/DDP, cisplatin-resistant	cell growth, CellTiter-Glo		96 h	0.377 µM
[BH3-][P+]1(C2CCCCC2)CCCCC1	SW-620	cell growth or viability, MTT		72 h	> 100 µM
Cc1nc(Nc2ccc3c(c2)/C(=C/c2ccccc2)C(=O)N3)c2ccccc2n1	BEAS-2B	cell growth or viability, MTT			7.01 µM
[BH3-][P@+]1(c2ccccc2)CC[C@H](O)CC1	SW-620	cell growth or viability, MTT		72 h	> 100 µM
C=CCOCO[C@H](C(=O)NC[C@@H]1C[C@@H](OC)C(C)(C)[C@@H](C[C@@H](COC)OC)O1)[C@@]1(OC)CC(=C)[C@@H](C)[C@@H](C)O1	B16	cell growth or viability, SRB		72 h	3.05 µM

A few entries again:
Compound	cell line	test	system	setting	IC50
CCn1nc(Cl)c2c1-c1cnc(N)c(c1)O[C@H](C)c1cc(F)ccc1-c1nn(C)cc1C2	Ba/F3 CD74-ROS1 G2032R	cell viability			0.0011 µM
Cn1ncc(-c2ccc3c(=O)[nH]nc(CN)c3c2)c1-c1c(F)c(Cl)cc(OC2CC2)c1C#N	SF763	cell viability, CellTiter-Glo		120 h	1.3 µM
O=CCNCCOn1c(=O)n(OCCNCCO)c(=O)n(OCCNCCOn2c(=O)n(OCCNCCO)c(=O)n(OCCNCCO)c2=O)c1=O	A549	cell growth or viability, MTT		24 h	10.5 µg/mL
CN1CCC(N[C@H]2CCc3[nH]c4c(C(N)=O)ccc(-c5ccccc5Cl)c4c3C2)CC1	A549/DDP, cisplatin-resistant	cell growth, CellTiter-Glo		96 h	0.377 µM
[BH3-][P+]1(C2CCCCC2)CCCCC1	SW-620	cell growth or viability, MTT		72 h	> 100 µM
